{"data": "Measured values collected from several papers", "note": "Compare with care: the assays were run in different laboratories. Numbers after ± are the reported error."}
{"SMILES": "O=C(O)CC[C@H](NC(=O)O[C@@H](CCCCNC(=O)c1ccc([18F])cc1)C(=O)O)C(=O)O", "system": "mouse, PC-3 PIP/flu xenografts, bladder", "setting": "60 min", "tissue uptake": "5.5 ± 3.45 %ID/g"}
{"SMILES": "N=C(N)NCc1ccc(C(=O)NCCCC[C@H](NC(=O)CCCCCCC(=O)NCCCC[C@H](NC(=O)N[C@@H](CCC(=O)O)C(=O)O)C(=O)O)C(=O)O)cc1[131I]", "system": "SCID mouse, PC-3 xenografts, spleen", "setting": "21 h", "tissue uptake": "0.16 ± 0.07 %ID/g"}
{"SMILES": "CCNc1cc2[o+]c3cc(NCC)c(C)cc3c(-c3ccccc3C(=O)OCCOCC[18F])c2cc1C", "system": "rat, bone", "setting": "120 min", "tissue uptake": "0.37 ± 0.05 %ID/g"}
{"SMILES": "O=C(c1ccc(F)cc1)C1CCN(C2Cc3c(cccc3OCC[18F])CC2O)CC1 (single isomer, unassigned; (-))", "system": "Sprague-Dawley rat, male, spleen", "setting": "intravenous, dose not given, 5 min", "tissue uptake": "1.26 ± 0.452 %ID/g"}
{"SMILES": "N=C(N)NCc1ccc(C(=O)NCCCC[C@H](NC(=O)N[C@@H](CCC(=O)O)C(=O)O)C(=O)O)cc1[211At]", "system": "SCID mouse, PC-3 xenografts, brain", "setting": "14 h", "tissue uptake": "0.06 ± 0.01 %ID/g"}
{"SMILES": "C=Cc1cc(O)cc2nc(-c3ccc(O)c([76Br])c3)oc12", "system": "female C57BL/6 mouse, ovaries", "setting": "3 h, high dose", "tissue uptake": "0.1 ± 0.02 %ID/g"}
{"SMILES": "COc1cc2ccnc(Cc3ccc(O[11CH3])c(OC)c3)c2cc1OC", "system": "Sprague-Dawley rats, kidney", "setting": "intravenous, 0.08333 h", "tissue uptake": "0.743 ± 0.05 %ID/g"}
{"SMILES": "N=C(N)NCc1ccc(C(=O)NCCCC[C@H](NC(=O)N[C@@H](CCC(=O)O)C(=O)O)C(=O)O)cc1[131I]", "system": "SCID mouse, PC-3 xenografts, heart", "setting": "14 h", "tissue uptake": "0.03 ± 0.02 %ID/g"}
{"SMILES": "COc1cc2ncnc(Oc3cccc(N[11C](=O)Nc4cc(C(C)(C)C(F)(F)F)on4)c3)c2cc1OC", "system": "Balb/c nude mouse, female, A375 melanoma xenograft, brain", "setting": "6.6 MBq, 30 min", "tissue uptake": "0.13 %ID/g"}
{"SMILES": "CN[C@](C)(C[18F])C(=O)O", "system": "SCID mouse U87 xenograft, liver", "setting": "30 min, post injection", "tissue uptake": "8.1 ± 1.6 %ID/g"}
{"note": "Excerpt of the above:"}
{"SMILES": "O=C(O)CC[C@H](NC(=O)O[C@@H](CCCCNC(=O)c1ccc([18F])cc1)C(=O)O)C(=O)O", "system": "mouse, PC-3 PIP/flu xenografts, bladder", "setting": "60 min", "tissue uptake": "5.5 ± 3.45 %ID/g"}
